Results of several laboratories.
Each line is one published result; not all experiments were run side by side. Numbers after ± are the reported error.
Chain of UniProt P10632 (whole entry, looked up): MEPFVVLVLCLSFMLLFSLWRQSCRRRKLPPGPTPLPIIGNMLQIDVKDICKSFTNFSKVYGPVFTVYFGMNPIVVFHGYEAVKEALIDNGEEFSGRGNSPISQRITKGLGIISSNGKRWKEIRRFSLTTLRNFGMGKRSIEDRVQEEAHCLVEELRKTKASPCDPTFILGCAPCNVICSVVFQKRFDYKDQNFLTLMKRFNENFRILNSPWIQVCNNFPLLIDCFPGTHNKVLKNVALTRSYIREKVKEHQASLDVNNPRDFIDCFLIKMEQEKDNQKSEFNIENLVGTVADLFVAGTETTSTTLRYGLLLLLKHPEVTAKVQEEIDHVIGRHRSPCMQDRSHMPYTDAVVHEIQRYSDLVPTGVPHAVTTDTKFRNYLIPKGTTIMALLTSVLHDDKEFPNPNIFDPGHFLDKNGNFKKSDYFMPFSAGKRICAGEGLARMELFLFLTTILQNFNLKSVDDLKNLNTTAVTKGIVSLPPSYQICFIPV

SMILES | tested on | test | system | setting | scale | measurement | value
CC(=O)[C@]1(O)Cc2c(O)c3c(c(O)c2[C@@H](O[C@H]2C[C@H](N)[C@H](O)[C@H](C)O2)C1)C(=O)c1ccccc1C3=O | Toxoplasma gondii | parasite growth | HFF, bradyzoite, glutamine-induced |  |  | EC50 | 1.32 µM
C=CC(=O)N(C)CCOc1c(N)ncnc1-c1cc(F)cc(NC(=O)c2ccc(C3CC3)cc2F)c1C |  |  | human, whole blood | oral, 60 mg, single ascending dose |  | mean residence time | 1.76 h
COc1cc2[nH]c(C)c(-c3ccc(OC(F)(F)F)cc3)c(=O)c2cc1Cl |  |  | PAMPA | pH 7.4 |  | Papp | 6 ×10⁻⁶ cm/s
C=CC(=O)N(C)CCOc1c(N)ncnc1-c1cc(F)cc(NC(=O)c2ccc(C3CC3)cc2F)c1C |  |  | human | oral, 50 mg, day 3, arithmetic mean, given alone |  | AUC(0-last) per dose | 4.74 ng·h/mL/mg
CC(C)C[C@H](NC(=O)C[C@H](O)[C@H](CC(C)C)NC(=O)[C@H](Cc1c[nH]cn1)NC(=O)CNC(=O)[C@@H](NC(=O)[C@H](C)NC(=O)[C@H](Cc1c[nH]c2ccccc12)NC(=O)[C@H](CCC(N)=O)NC(=O)[C@@H](Cc1ccccc1)NC(=O)COCCOCCNC(=O)CCC(C(=O)O)N1CCN(CC(=O)O)CCN(CC(=O)O)CCN(CC(=O)O)CC1)C(C)C)C(N)=O (some centres unmarked) [lutetium-177 labelled] |  |  | BALB/c nu/nu mice, lung | intravenous, 100 pmol, 1 h, with: PA 300 µg |  | tissue uptake | 0.54 ± 0.09 %ID/g
CC(C)(C)c1ccc(O)c(CN(Cc2cc(C(C)(C)C)ccc2O)C2CCC(NC(N)=O)CC2)c1 (centres unmarked) |  |  | C57BL/6 mice, male, plasma | oral, 10 mg/kg |  | elimination rate constant | 6.94e-05 s⁻¹
CCCCCCNc1nc(NC2CCN(C)CC2)c2cc(OC)c(OC)cc2n1 | Toxoplasma gondii | bradyzoite growth |  | glutamine-induced bradyzoites, glucose-free medium |  | EC50 | 2.23 µM
C[C@H]1CNC(=O)c2cnn3ccc(nc23)N[C@H](C)c2cc(F)ccc2O1 |  |  | Balb/c nude mice, female, brain | oral, 75 mg/kg twice daily, 1 h, steady state |  | unbound concentration | 4.2 ± 0.9 nM
CNc1ccc(-c2nc3ccc(O)cc3s2)cc1 [carbon-11 labelled] |  | ex vivo biodistribution | B6SJL mouse, normal, spleen | intravenous, 30 min |  | SUV | 0.464 ± 0.057
O=C(O)CCC(=O)O.[2H]C([2H])([2H])Oc1cc(C)c2[nH]ccc2c1CN1CC[C@@H](C2CC2)C[C@H]1c1ccc(C(=O)O)cc1 |  |  | human, plasma | 300 mg once daily, day 10, multiple ascending dose |  | CLss/F | 2.66 L/h
COc1cc2c(CCNC(C)=O)c[nH]c2cc1O |  | sulfation, substrate | pooled human kidney cytosol | 50 µM, 30 min, with: 50 mM NaF |  | specific activity | 10.3 ± 0.33 pmol/min/mg
C[C@@]1(c2cc(NC(=O)c3ccc(C#N)cn3)ccc2F)C=CSC(N)=N1 |  |  | elderly humans, both sexes, plasma | oral, 3 mg single dose |  | dose-normalised Cmax | 5.72 ng/mL
Cn1cc(Nc2nccc(-c3ccc4c(c3)CN(C3COC3)CC[C@H]4NC(=O)c3cn(C(C)(C)C)nn3)n2)cn1 |  |  | human, whole blood | 300 mg twice daily, day 14 | relative to: pre-dose baseline | CD8+ T cell count change | -5.23%
CC[C@H]1[C@@H](O)[C@@H]2[C@H](CC[C@]3(C)[C@@H]([C@H](C)CCNC(=O)NS(=O)(=O)c4ccc(C(C)(C)C)cc4)CC[C@@H]23)[C@@]2(C)CC[C@@H](O)C[C@@H]12 | ATP-dependent translocase ABCB1 (ABCB1, Homo sapiens, UniProt P08183) | substrate | human, plasma | dose not given, alone |  | AUC(0-t) geometric mean | 350 ng·h/mL
Cc1noc(C)c1Cn1cc(N2C(=O)CN(Cc3cccc(O)c3)C2=O)cn1 |  |  | pooled human liver microsomes | 50 µM, 10 min, pH 7.4 |  | remaining parent | 104 % peak area
COc1cc2[nH]c(C)c(-c3ccc(C(=O)O)cc3)c(=O)c2cc1Cl |  |  | PAMPA | pH 7.4 |  | Papp | < 5 ×10⁻⁶ cm/s
CCN1/C(=C/C(C)=O)Sc2ccc(F)cc21 |  |  | cynomolgus monkey | oral, 30 mg/kg, 6 h post-dose | relative to: pre-dose | QTc interval change | 103 ± 2.6%
COc1ncc(-c2nc3c(n2C(C)C)[C@H](c2ccc(Cl)cc2)N(c2cc(Cl)cn(C)c2=O)C3=O)c(OC)n1 |  |  | human patients, plasma | oral, 350 mg, high-dose arm, cycle 1 day 1 |  | median half-life | 14 h
O=C1Cc2cc(CCN3CCN(c4nsc5ccccc45)CC3)c(Cl)cc2N1 |  |  | male Hartley guinea pigs, anaesthetized | intravenous, 0.1 mg/kg over 10 min, after infusion |  | mean blood pressure | 31 ± 0.6 mmHg
CC(C)c1nc(N(C)S(C)(=O)=O)nc(-c2ccc(F)cc2)c1/C=C/[C@@H](O)C[C@@H](O)CC(=O)O |  |  | Wistar albino rat, both sexes, plasma | oral, 20 mg/kg, 2.5 h |  | plasma concentration | 682 ng/mL
Cc1ccc(O)c(-n2nc3ccccc3n2)c1 |  | exposure assessment | human, age 1-2 years | spray sunscreen |  | mean daily dermal uptake | 1410 ng/kg body weight/day
CNC(=O)c1ccc(-c2cnc3ncc(Cc4ccc5ncccc5c4)n3n2)cc1F |  | CTCAE v4.0, any causality | human gastric cancer patients | oral, 600 mg twice daily, expansion cohort at RP2D |  | dry mouth incidence (all grades) | 11%
Cc1cc(Nc2ncnc3ccc(NC4=NC(C)(C)CO4)cc23)ccc1Oc1ccn2ncnc2c1 | Cytochrome P450 2C8 (CYP2C8, Homo sapiens, UniProt P10632) |  | human, plasma | oral, 300 mg single dose, day 1, arithmetic mean |  | AUC(0-inf) | 2650 ng·h/mL
Cn1cc(-c2ccc(-c3cncc(Cl)c3N3CCC4(CCNC4=O)CC3)cc2)cn1 | COLO 205 | gene expression, microarray, measured: IFIT2 mRNA |  | concentration not given, 2 h | relative to: untreated cells | log2 fold change | 3.3
CCCCCCOC(=O)NC(=N)c1ccc(NCc2nc3cc(C(=O)N(CCC(=O)OCC)c4ccccn4)ccc3n2C)cc1 |  |  | human | oral, 75 mg, compound alone |  | participants with TEAE dry lips | 4.2%
COC(=O)Nc1ccc2nc(C(=N)N)ccc2c1 |  |  |  |  |  | pKa | 10.1

Some of these lines once more:
SMILES | tested on | test | system | setting | scale | measurement | value
Cn1cc(Nc2nccc(-c3ccc4c(c3)CN(C3COC3)CC[C@H]4NC(=O)c3cn(C(C)(C)C)nn3)n2)cn1 |  |  | human, whole blood | 300 mg twice daily, day 14 | relative to: pre-dose baseline | CD8+ T cell count change | -5.23%
CC[C@H]1[C@@H](O)[C@@H]2[C@H](CC[C@]3(C)[C@@H]([C@H](C)CCNC(=O)NS(=O)(=O)c4ccc(C(C)(C)C)cc4)CC[C@@H]23)[C@@]2(C)CC[C@@H](O)C[C@@H]12 | ATP-dependent translocase ABCB1 (ABCB1, Homo sapiens, UniProt P08183) | substrate | human, plasma | dose not given, alone |  | AUC(0-t) geometric mean | 350 ng·h/mL
Cc1noc(C)c1Cn1cc(N2C(=O)CN(Cc3cccc(O)c3)C2=O)cn1 |  |  | pooled human liver microsomes | 50 µM, 10 min, pH 7.4 |  | remaining parent | 104 % peak area
